Measured values collected from several papers.
Compare with care: the assays were run in different laboratories.
Target: 5-hydroxytryptamine receptor 1A (HTR1A, Homo sapiens, UniProt P08908)
Sequence of UniProt P08908 (whole entry, looked up): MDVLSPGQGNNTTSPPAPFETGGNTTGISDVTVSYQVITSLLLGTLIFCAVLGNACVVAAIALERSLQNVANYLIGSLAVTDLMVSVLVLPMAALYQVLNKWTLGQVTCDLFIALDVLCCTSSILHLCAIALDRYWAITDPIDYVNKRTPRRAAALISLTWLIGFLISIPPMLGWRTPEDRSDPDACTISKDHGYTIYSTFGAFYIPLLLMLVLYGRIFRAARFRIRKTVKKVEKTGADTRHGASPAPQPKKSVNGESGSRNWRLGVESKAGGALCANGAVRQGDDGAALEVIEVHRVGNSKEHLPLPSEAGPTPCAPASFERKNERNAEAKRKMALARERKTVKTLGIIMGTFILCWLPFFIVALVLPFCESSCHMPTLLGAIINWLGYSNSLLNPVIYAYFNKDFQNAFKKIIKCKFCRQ

Structure (SMILES) | read-out | mode | method | concentration | together with | endpoint | result
Cc1ccnc(OC[C@H]2CN(CCN3CCc4ccccc43)CCO2)c1 | radioligand binding | – | – | concentration not given | [3H]8-OH-DPAT | inhibition | 27.5%
COCC(=O)N1CCc2cc(-c3csc(NC(=O)c4cc(OC)cc(OC)c4)n3)ccc21 | ligand displacement | – | radioligand | 10 µM | – | inhibition | 0%
Brc1ccccc1-c1nnc(CSc2nnnn2-c2ccccc2)o1 | ligand displacement | – | radioligand | 10 µM | – | inhibition | 26%
Cc1[nH]nc2c1N=C(c1ccccc1Cl)c1cnc(N3CCOCC3)cc1N2 | ligand displacement | – | – | 10 µM | – | inhibition | -2%
O=C(CN1CCO[C@@H](COc2cccc(Cl)c2)C1)N1CCc2ccccc21 | radioligand binding | – | – | concentration not given | [3H]8-OH-DPAT | inhibition | 89.3%
C[Si](C)(C)C[C@@H](CN)CC(=O)O | ligand displacement | – | radioligand | 75 µM | – | inhibition | 0%
CO[C@@H](C)c1c(NC(=O)Nc2cnc(-n3nccn3)c(C(F)(F)F)c2)cnc2sc(C)nc12 | ligand displacement | – | radioligand | 10 µM | – | inhibition | 2.3%
COc1ccc(C(=O)Nc2c(-c3cccs3)nc3ccccn23)cc1 | ligand displacement | – | radioligand | 10 µM | – | inhibition | < 50%
COc1ncc2nc(C)n(Cc3ncc(S(N)(=O)=O)cc3F)c2c1-c1ccccc1 | – | agonist | cell-based | 10 µM | – | activation | 14.6%
Cc1cccc(O[C@H]2CCC[C@@H](C(C)CNCc3ccncc3)C2)c1 (relative stereo) | ligand displacement | – | – | 10 µM | – | inhibition | 68%
O=C1c2sc(-c3ccc(N4CCC(CO)CC4)nc3F)nc2CCN1c1cccnc1 | ligand displacement | – | radioligand | 1 µM | – | inhibition | -1%

Repeated from above:
Structure (SMILES) | read-out | mode | method | concentration | together with | endpoint | result
Cc1cccc(O[C@H]2CCC[C@@H](C(C)CNCc3ccncc3)C2)c1 (relative stereo) | ligand displacement | – | – | 10 µM | – | inhibition | 68%
